Measured values of several laboratories.
A part holds a random share of what one study measured. Positions count from the first letter of the parent shown.

Series 1 — method: RNA Bind-n-Seq; form: RNA; matrix: in vitro; concentration: 200 nM; setting: whole 134-nt RNA, ends assumed; added: 150 mM LiCl; baseline: input library; reading: higher = stronger binding; library: 7-deaza-guanosine replaces G
Target: Fragile X messenger ribonucleoprotein 1, C-terminal low-complexity region (Fmr1, Mus musculus, UniProt P35922)
All sequences stand within: GGGAGUUCUACAGUCCGACGAUC … UGGAAUUCUCGGGUGUCAAGG
Sequence	log2 enrichment
CUGUGCUACACAUCGUAUGUACCGAAUCGGGGAAAAAAAGGGGUUUUUUUGGGGUUUGGGGAAAGUAUUAUGUUACGCCGUUCGGAUCUG	-1.89
UGUGCUACACAUCGUAUGUACCGAAUCGGGGAAAAAGGGGAAAAAAAGGGGUUUUUUUGGGGAAAGUAUUAUGUUACGCCGUUCGGAUCU	-0.204
CACAGACAACACGCACCCACACAGACACAGAGGGAAGGGGUUGGGAUGGGCACAGGGUGCACAGCAGGGCGGGGUAGGACCCCAGCCCCU	0.274
UGGCCCUGGUGGCAUGCGGGGAGGAAGAGGUCGCCUCAUGGAUCGUGGUGGUCCCGGUGGAAUGUUCAGAGGUGGCCGUGGUGGAGACAG	-0.131
CUCAAGUCCUGUGCUACACAUCGUAUGUACCGAAUCGGGAAGGGGAAGGGAAGGAAAGUAUUAUGUUACGCCGUUCGGAUCUGCACUUCC	-0.601

Series 2 — method: protein-binding microarray; form: double-stranded DNA, one strand shown; matrix: in vitro; concentration: not given; reading: higher = stronger binding
Target: Transcription factor Sp1 (SP1, Homo sapiens, UniProt P08047, residues 1-785, full length assumed)
Sequence of UniProt P08047 (whole entry, looked up): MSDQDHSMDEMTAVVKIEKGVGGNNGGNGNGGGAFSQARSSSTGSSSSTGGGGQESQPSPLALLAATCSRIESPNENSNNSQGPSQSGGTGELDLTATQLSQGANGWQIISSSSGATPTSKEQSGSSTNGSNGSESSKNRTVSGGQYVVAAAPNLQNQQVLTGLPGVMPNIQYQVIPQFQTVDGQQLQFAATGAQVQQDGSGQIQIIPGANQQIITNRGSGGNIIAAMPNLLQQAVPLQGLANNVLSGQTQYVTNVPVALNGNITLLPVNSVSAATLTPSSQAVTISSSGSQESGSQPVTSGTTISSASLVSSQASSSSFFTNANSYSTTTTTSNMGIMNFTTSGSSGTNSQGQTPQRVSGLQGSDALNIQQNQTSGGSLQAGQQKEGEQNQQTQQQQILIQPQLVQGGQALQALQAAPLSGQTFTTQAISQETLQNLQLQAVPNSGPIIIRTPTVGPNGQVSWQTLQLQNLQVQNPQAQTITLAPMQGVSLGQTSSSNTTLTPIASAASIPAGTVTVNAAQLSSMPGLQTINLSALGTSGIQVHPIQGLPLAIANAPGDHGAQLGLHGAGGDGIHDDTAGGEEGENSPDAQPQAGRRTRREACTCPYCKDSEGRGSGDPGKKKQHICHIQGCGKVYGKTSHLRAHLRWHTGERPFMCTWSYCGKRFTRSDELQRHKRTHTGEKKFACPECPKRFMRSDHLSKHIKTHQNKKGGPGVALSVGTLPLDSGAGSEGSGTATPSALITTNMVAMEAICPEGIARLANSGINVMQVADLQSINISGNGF
Setting: k-mer, scored over probes, only values ≥0.25
Sequence	E-score
ACTATATA	0.281
AGAAATGG	0.254
CTATACCC	0.282
GTGGGATA	0.316

Mixed results
ABI1: ABI1, truncated, D143A, DHFR fusion (Arabidopsis thaliana)
P1: PYL1, truncated, DHFR fusion (Arabidopsis thaliana); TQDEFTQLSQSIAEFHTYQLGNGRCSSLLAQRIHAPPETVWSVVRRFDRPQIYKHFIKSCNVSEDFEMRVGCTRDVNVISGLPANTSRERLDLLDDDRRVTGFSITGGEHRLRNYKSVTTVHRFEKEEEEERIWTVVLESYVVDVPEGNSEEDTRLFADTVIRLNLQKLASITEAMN; partner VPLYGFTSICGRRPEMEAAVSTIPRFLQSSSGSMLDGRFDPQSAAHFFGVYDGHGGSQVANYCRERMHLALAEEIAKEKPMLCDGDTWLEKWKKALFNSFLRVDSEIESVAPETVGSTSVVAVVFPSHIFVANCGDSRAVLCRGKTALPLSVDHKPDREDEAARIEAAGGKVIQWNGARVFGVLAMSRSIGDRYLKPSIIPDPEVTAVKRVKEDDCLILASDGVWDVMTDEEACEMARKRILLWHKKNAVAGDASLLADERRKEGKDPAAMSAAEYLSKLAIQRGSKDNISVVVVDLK
Substance	target	test	system	setting	scale	measurement	value
P1 S104Q	ABI1	DHFR PCA, deep sequencing	yeast	methotrexate growth selection, single substitutions, added: (+)-ABA 0 µM	baseline: wild-type fitted maximum, higher = stronger binding	relative binding score	-3.88%
PhoQ, residues 284 288 289 292 302 303 SSYNSA	PhoP, residues 12 14 15 18 19 NNFVT (Escherichia coli, UniProt P23836)	Sort-seq, refers to: YFP reporter	E. coli	PhoQ-PhoP variant library, added: 10 µM Mg2+	baseline: high Mg2+ state, higher = stronger signaling	fold induction	1.77
P1 T17E	ABI1	DHFR PCA, deep sequencing	yeast	methotrexate growth selection, single substitutions, added: (+)-ABA 0 µM	baseline: wild-type fitted maximum, higher = stronger binding	relative binding score	-3.82%
P1 A30K	ABI1	DHFR PCA, deep sequencing	yeast	methotrexate growth selection, single substitutions, added: (+)-ABA 200 µM	baseline: wild-type fitted maximum, higher = stronger binding	relative binding score	105%
P1 C60Y	ABI1	DHFR PCA, deep sequencing	yeast	methotrexate growth selection, single substitutions, added: (+)-ABA 200 µM	baseline: wild-type fitted maximum, higher = stronger binding	relative binding score	25.1%

Excerpt of the above (mixed results):
Substance	target	test	system	setting	scale	measurement	value
P1 T17E	ABI1	DHFR PCA, deep sequencing	yeast	methotrexate growth selection, single substitutions, added: (+)-ABA 0 µM	baseline: wild-type fitted maximum, higher = stronger binding	relative binding score	-3.82%
P1 A30K	ABI1	DHFR PCA, deep sequencing	yeast	methotrexate growth selection, single substitutions, added: (+)-ABA 200 µM	baseline: wild-type fitted maximum, higher = stronger binding	relative binding score	105%
